Measurements from different studies.
Numbers after ± are the reported error.
UCHL1: Ubiquitin carboxyl-terminal hydrolase isozyme L1 (UCHL1, Homo sapiens, UniProt P09936)
Sequence of UniProt P09936 (whole entry, looked up): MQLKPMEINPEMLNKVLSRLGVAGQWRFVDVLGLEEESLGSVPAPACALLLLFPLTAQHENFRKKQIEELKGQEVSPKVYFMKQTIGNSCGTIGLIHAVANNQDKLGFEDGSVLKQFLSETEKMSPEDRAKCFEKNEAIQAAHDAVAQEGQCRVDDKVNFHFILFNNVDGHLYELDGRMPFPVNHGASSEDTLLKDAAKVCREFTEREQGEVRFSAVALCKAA
Sequence of UniProt Q07794 (whole entry, looked up): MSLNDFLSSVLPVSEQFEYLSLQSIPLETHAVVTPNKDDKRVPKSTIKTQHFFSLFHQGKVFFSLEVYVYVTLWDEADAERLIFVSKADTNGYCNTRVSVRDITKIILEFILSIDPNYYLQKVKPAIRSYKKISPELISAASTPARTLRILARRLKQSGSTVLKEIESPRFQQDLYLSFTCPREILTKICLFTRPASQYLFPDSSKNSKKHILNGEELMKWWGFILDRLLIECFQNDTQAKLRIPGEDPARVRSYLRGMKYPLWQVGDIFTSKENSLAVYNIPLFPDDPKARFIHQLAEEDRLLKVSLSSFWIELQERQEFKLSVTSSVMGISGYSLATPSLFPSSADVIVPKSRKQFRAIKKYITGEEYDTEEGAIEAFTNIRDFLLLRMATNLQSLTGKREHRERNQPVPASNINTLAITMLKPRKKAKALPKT

SMILES	tested on	test	test system	setting	how to read	endpoint	result
O=C(CCl)N(Cc1ccc(Cl)c([N+](=O)[O-])c1)c1ccccc1	UCHL1	covalent, intact protein LC-MS	–	12.5 µM	–	labelling	21.2%
Cn1c(C(F)(F)F)cc(=O)n(-c2cc(Oc3cccnc3OCC(=O)O)c(Cl)cc2F)c1=O	–	–	beagle dog, male, plasma	oral capsule, 300 mg/kg/day epyrifenacil, day 1, 90-day study	–	Cmax	5210 ng/mL
N#C[C@@]1(c2ccc3c(N)ncnn23)O[C@H](CO)[C@@H](O)[C@H]1O	–	–	beagle dog, male, plasma	oral, 6.5 mg/kg, capsule	–	Cmax	4580 ng/mL
Cc1nc(-c2cnc(NC(C)C)n(C)c2=O)ccc1Oc1ccnc(-c2cnn(C)c2)c1	–	–	Beagle dog, male, plasma	oral, 3 mg/kg, crossover study, mean	–	Cmax	1300 ng/mL
CCN1CCN(Cc2ccc(Nc3ncc(F)c(-c4cc(F)c5nc6n(c5c4)[C@H](C)CCC6)n3)nc2)CC1	–	–	human, Phase Ib patients, plasma	400 mg, multiple doses, mean, added: fulvestrant	–	Cmax	394 ng/mL
O=S1(=O)C=C(N2CCOCC2)c2ccccc21	Histone acetyltransferase RTT109, with Vps75 (Saccharomyces cerevisiae, UniProt Q07794)	enzyme activity, inhibitor, HTS, CPM-based, dose response	–	–	–	IC50	> 125 µM
COCCOc1cnc2ccn([C@H](C)c3nnc4c(F)cc(-c5cnn(C)c5)cn34)c(=O)c2c1	–	–	patients, plasma	oral, 100 mg twice daily, day 1, 200 per day	–	Cmax	2290 ng/mL
C[C@H]1CN(C(=O)CC#N)[C@]12CCN(c1ncnc3[nH]ccc13)C2	–	–	healthy adults, plasma	oral, 6 mg single dose	–	Cmax	49.7 ng/mL
Cl.[2H]C([2H])([2H])CC(=O)c1cnc(NC(=O)C2CC2)cc1Nc1cccc(-c2ncn(C([2H])([2H])[2H])n2)c1OC	–	geometric mean	human	oral, 10 mg single dose, fasted, liquid	–	Cmax	93 ng/mL
O=S(=O)(NCC(c1cccnc1)N1CCN(c2ccc(F)cc2)CC1)c1ccccc1 (stereo not shown)	Trypanosoma cruzi	reporter translation, Renilla luciferase mRNA translation	cell-free extract	40 µM	baseline: DMSO	inhibition	-11.5%
COc1ncc(-c2nc3c(n2C(C)C)[C@H](c2ccc(Cl)cc2)N(c2cc(Cl)cn(C)c2=O)C3=O)c(OC)n1	–	LC-MS/MS	human, plasma	oral, 100 mg, cycle 1 day 1, high-dose arm	–	Cmax	663 ng/mL
COc1cc2c3c(n(CCCN4CCOCC4)c(=O)c2cc1OC)-c1cc2c(cc1C3=O)OCO2	–	–	beagle dogs, female, plasma	oral, 1720 mg/m^2, gelatin capsules	–	Cmax	180 ng/mL
CCc1nc(C(N)=O)c(Nc2ccc(N3CCC(N4CCN(C)CC4)CC3)c(OC)c2)nc1NC1CCOCC1	–	–	Japanese patients, plasma	oral, 120 mg, cycle 1 day 28, multiple doses, mean	–	Cmax	680 ng/mL
N#C[C@@]1(c2ccc3c(N)ncnn23)O[C@H](CO)[C@@H](O)[C@H]1O	–	–	beagle dog male	oral, 100 mg/kg/day, day 14, twice daily repeated dosing	–	Cmax	10800 ng/mL
COc1ccc(C[C@@H](C)[C@@H](C)Cc2ccc(OC)c(OC)c2)cc1OC	–	–	beagle dog female, plasma	oral, 1000 mg/kg/day, day 1	–	Cmax	2190 ± 538 ng/mL
CC(c1ccc(C(F)(F)F)c(Cl)c1)N(C)C(=O)CCl (stereo not shown)	UCHL1	covalent, intact protein LC-MS	–	12.5 µM	–	labelling	12.8%

Some of these lines once more:
SMILES	tested on	test	test system	setting	how to read	endpoint	result
N#C[C@@]1(c2ccc3c(N)ncnn23)O[C@H](CO)[C@@H](O)[C@H]1O	–	–	beagle dog, male, plasma	oral, 6.5 mg/kg, capsule	–	Cmax	4580 ng/mL
Cc1nc(-c2cnc(NC(C)C)n(C)c2=O)ccc1Oc1ccnc(-c2cnn(C)c2)c1	–	–	Beagle dog, male, plasma	oral, 3 mg/kg, crossover study, mean	–	Cmax	1300 ng/mL
CCN1CCN(Cc2ccc(Nc3ncc(F)c(-c4cc(F)c5nc6n(c5c4)[C@H](C)CCC6)n3)nc2)CC1	–	–	human, Phase Ib patients, plasma	400 mg, multiple doses, mean, added: fulvestrant	–	Cmax	394 ng/mL
